Measured values pooled from the literature.
A part holds a random share of what one study measured. Several values in a cell are separate wells, animals, samples, runs or records.

Series 1
Target: Calcium/calmodulin-dependent protein kinase type II subunit alpha (CAMK2A, Homo sapiens, UniProt Q9UQM7)
UniProt Q9UQM7, sequence (whole entry, looked up): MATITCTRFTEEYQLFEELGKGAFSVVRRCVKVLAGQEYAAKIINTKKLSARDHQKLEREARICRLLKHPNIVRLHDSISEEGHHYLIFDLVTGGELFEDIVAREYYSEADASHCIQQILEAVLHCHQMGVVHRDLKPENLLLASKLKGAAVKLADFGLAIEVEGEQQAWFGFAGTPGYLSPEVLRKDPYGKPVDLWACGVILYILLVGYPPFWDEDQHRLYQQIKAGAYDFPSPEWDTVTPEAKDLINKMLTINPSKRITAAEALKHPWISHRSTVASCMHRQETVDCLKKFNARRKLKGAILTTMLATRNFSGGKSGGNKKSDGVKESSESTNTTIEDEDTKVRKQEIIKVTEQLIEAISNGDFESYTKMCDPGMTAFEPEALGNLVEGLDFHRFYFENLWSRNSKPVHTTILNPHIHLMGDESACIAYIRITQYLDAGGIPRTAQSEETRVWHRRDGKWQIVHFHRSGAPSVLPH
Effect on: enzyme activity
Action: inhibitor
Concentration: 10 µM
| SMILES | inhibition |
| --- | --- |
| O=c1[nH]cnc2c1ncn2[C@@H]1O[C@H](CO)[C@@H](O)[C@H]1O | -0.05% and 0.2% |
| CC(=O)NC(Cc1c[nH]c2ccccc12)C(=O)O (racemic) | -21% |
| O=C(O)c1ccccc1-c1c2ccc(=O)cc-2oc2cc(O)ccc12 | -2% |
| Cn1ncnc1[C@H]1c2n[nH]c(=O)c3cc(F)cc(c23)N[C@@H]1c1ccc(F)cc1 | -0.11% and -0.1% |
| CC(C)=C[C@@H]1CO[C@]23C[C@]4(CO2)[C@H](CC[C@@H]2[C@@]5(C)CC[C@H](O[C@@H]6OC[C@H](O)[C@H](O[C@@H]7O[C@H](COS(=O)(=O)O)[C@@H](O)[C@H](O)[C@H]7O)[C@H]6O[C@@H]6O[C@@H](CO)[C@H](O)[C@H]6O)C(C)(C)[C@@H]5CC[C@]24C)[C@H]3[C@@]1(C)O | -11% |
| CC(CC(=O)O)C(=O)O (stereo not drawn) | 22% |
| COC(=O)Nc1nc2cc(C(=O)c3ccccc3)ccc2[nH]1 | -5% |

Series 2
Target: Phosphorylase b kinase gamma catalytic chain, skeletal muscle/heart isoform (PHKG1, Homo sapiens, UniProt Q16816)
Effect on: enzyme activity
Action: inhibitor
Concentration: 0.5 µM
Reference: control
Construct (Q16816 1-387): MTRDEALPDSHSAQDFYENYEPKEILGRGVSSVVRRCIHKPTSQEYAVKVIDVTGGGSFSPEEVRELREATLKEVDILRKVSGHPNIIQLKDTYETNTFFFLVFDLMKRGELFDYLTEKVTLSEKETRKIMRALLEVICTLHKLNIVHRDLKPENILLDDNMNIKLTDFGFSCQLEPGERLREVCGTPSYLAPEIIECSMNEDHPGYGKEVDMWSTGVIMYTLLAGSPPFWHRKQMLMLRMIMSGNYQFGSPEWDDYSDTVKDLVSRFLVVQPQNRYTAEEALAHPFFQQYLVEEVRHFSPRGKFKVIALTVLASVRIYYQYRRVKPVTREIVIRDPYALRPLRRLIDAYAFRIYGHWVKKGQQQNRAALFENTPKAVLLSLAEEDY
| Compound | remaining activity |
| --- | --- |
| O=C1NC(=O)C(c2cn(CCCn3ccnc3)c3ccccc23)=C1Nc1ccccc1 | 64.6% |
| Cn1sc(=O)n(Cc2ccccc2)c1=O | 102% |
| O=C(O)c1ccc2c3c1cccc3c(=O)n1c3ccccc3nc21 | 91.5% |
| CN(C)c1ccc(C=C2C(=O)Nc3ccccc32)cc1 | 99.1% |
| Nc1[nH]nc2nc3ccccc3nc12 | 86.9% |
| COc1cc2ncnc(Nc3ccc(Oc4ccccc4)cc3)c2cc1OC | 91.8% |
| COc1cc2ncnc(Nc3ccc(F)c(Cl)c3)c2cc1OCCCN1CCOCC1 | 68.8% |
| C#Cc1cccc(Nc2ncnc3cc(OCCOC)c(OCCOC)cc23)c1 | 93.2% |
| N#CC(C#N)=C(N)/C(C#N)=C/c1ccc(O)cc1 | 92.5% |
| Cc1ccc(Nc2nccc(N(C)c3ccc4c(C)n(C)nc4c3)n2)cc1S(N)(=O)=O | 92.5% |
| CCOC(=O)c1c(C)[nH]c(/C=C2\C(=O)Nc3ccccc32)c1C | 73.3% |
| Cc1nc(-c2ccccc2)c(-c2ccncc2)o1 | 96.1% |
| O=S(=O)(c1cccc2cnccc12)N1CCCNCC1 | 90.8% |
| COc1ccc(CNC(=O)Nc2ncc([N+](=O)[O-])s2)cc1 | 101% |
| NCCNc1ncc(C(N)=O)c(Nc2cccc(C(F)(F)F)c2)n1 | 75.6% |
| O=C(CCCc1ccc(-c2ccccc2F)cc1)Nc1ccc(O)cc1 | 89.1% |

Series 3
Structure (SMILES): COc1ccc(-c2c(Nc3ccccn3)[nH]c3c(C4=CCCCC4)c(-c4ccccc4)nn3c2=O)cc1
Species: human cancer patients
Medium: plasma
Route: oral
Setting: median, cycle 1 day 15
Reference: multiple over single dose
| setting | Cmax accumulation ratio |
| --- | --- |
| 50 mg QD | 3.04 |
| 200 mg QD | 5.21 |
| 100 mg QD | 2.48 |

Series 4
Target: 5-hydroxytryptamine receptor 5A (HTR5A, Homo sapiens, UniProt P47898)
UniProt P47898, sequence (whole entry, looked up): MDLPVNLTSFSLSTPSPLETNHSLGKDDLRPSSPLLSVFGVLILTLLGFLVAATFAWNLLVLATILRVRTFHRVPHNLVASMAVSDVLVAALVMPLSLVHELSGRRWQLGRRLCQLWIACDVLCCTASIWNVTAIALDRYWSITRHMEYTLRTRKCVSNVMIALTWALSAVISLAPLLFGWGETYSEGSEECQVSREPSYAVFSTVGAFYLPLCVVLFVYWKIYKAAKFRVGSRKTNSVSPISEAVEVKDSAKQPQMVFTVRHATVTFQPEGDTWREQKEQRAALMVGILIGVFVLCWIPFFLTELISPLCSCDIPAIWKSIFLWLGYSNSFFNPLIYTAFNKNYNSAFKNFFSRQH
Effect on: cell-free assay
Concentration: 10 µM
| SMILES | inhibition [%] |
| --- | --- |
| Cc1ccc(-c2cnc([C@@]3(O)CC[C@H](C(=O)O)C(C)(C)C3)s2)cc1Nc1cccc(C(F)(F)F)n1 | -4.56 |
| O=C(NCc1ncc(C(F)(F)F)cc1Cl)c1ccc2c(c1)C1(CCS(=O)(=O)CC1)[C@H](C1CC1)N2S(=O)(=O)c1ccc(F)cc1 | -8.25 |
| Cc1c(N2CCCC2)nc2ccc(Br)cc2c1C(=O)NC[C@H](CCC(=O)O)c1ccccc1Cl | -5.32 |
| CC(=O)C1=C(C)N(c2cccc(C(F)(F)F)c2)C(=O)N[C@H]1c1ccc(C#N)nc1 | 8.86 |
| N#CN1CC[C@H](C(=O)Nc2nc3c(s2)CN(C(=O)CN=[N+]=[N-])CC3)C1 | 11.8 |
| CC(=O)c1c(NS(C)(=O)=O)c2cc(-c3ccc(Cl)cc3)c(-c3ccc(Cl)cc3Cl)nc2n(C)c1=O | 39.9 |
| CC1CCN(c2ccnc(NCc3cn(C)cn3)n2)CC1 | 24 |

Excerpt of the above (series 2):
| Compound | remaining activity |
| --- | --- |
| COc1ccc(CNC(=O)Nc2ncc([N+](=O)[O-])s2)cc1 | 101% |
| CCOC(=O)c1c(C)[nH]c(/C=C2\C(=O)Nc3ccccc32)c1C | 73.3% |
